Results from different studies.
Lines come from different studies, so protocols differ. ± marks the error that the study gave.
Cell line: HepG2

Structure (SMILES) | observed | technique | time | setting | IC50
CCC(=[NH+][Pt-2]1([OH])([OH])([Cl])[NH]CCC[NH]1)N(C)CCNc1c2ccccc2[nH+]c2ccccc12.O=[N+]([O-])O.O=[N+]([O-])O | cell growth or viability | MTS | 72 h |  | 0.0272 µM
O=C1CS/C(=N\N=C\c2cccc3cc4ccccc4nc23)N1c1ccc(F)cc1 | cell growth or viability | MTT | 48 h |  | 43.8 µM
NCC1OC(OC2C(N)CC(N)C(OC3OC(CO)C(O)C(N)C3O)C2O)C(N)C(O)C1O (centres unmarked) | cell growth or viability |  |  |  | > 10 µM
Oc1ccc(C#Cc2c(O)ccc3c2C(c2ccc(O)cc2)(c2ccc(O)cc2)c2cc(O)ccc2-3)cc1 | cell growth or viability | MTT | 48 h |  | 20.9 µM
CCC(=[NH+][Pt-2]1([Cl])([O]C(=O)CC(C)C)([O]C(=O)CC(C)C)[NH]CCC[NH]1)N(C)CCNc1c2ccccc2[nH+]c2ccccc12.O=[N+]([O-])O.O=[N+]([O-])O | cell growth or viability | MTS | 72 h |  | 0.016 µM
O=c1[nH]c(=O)n([C@@H]2O[C@H](CO)[C@@H](O)[C@H]2O)cc1F | cell growth or viability |  |  |  | 2.37 µM
CC(C)=CC1OC(C)(C)C2C=C3C(=O)C(Cl)=CC(O)C3C3C(O)C4OC4C(=O)C132 (centres unmarked) | cell growth or viability | MTS |  |  | 7.32 µM
O=Cc1ccc(-c2ccc(O)cc2)c(C(=C2C=CC(=O)C=C2)c2ccc(O)cc2)c1C#Cc1ccc(O)cc1 | cell growth or viability | MTT | 48 h |  | 12.5 µM
CCOC(=O)/C=C1\S/C(=N\N=C\c2cccc3cc4ccccc4nc23)N(c2ccc(OC)cc2)C1=O | cell growth or viability | MTT | 48 h |  | > 50 µM
COc1ccc(O)c(C(=O)c2cnn(-c3oc(C)nc3C#N)c2)c1 | cytotoxicity | MTT |  |  | > 50 µM
NC1=C(Cl)C(=O)c2ccccc2C1=O | cell growth or viability | MTT |  |  | 12.4 µM
COc1ccc(C(C)N(C)c2nc(N)nc3nc[nH]c23)cc1 (centres unmarked) | cytotoxicity | MTT |  |  | > 50 µM
NC(=O)c1ccc(-c2ccccc2Cl)c2c3c([nH]c12)CC[C@@H](N)C3 | cell growth or viability |  |  |  | 0.0191 µM
CCC(=[N][Pt-2]1([Cl])[NH2+]CCC[NH2+]1)N(C)CCNc1c2ccccc2nc2ccccc12.O=[N+]([O-])O.O=[N+]([O-])O | cell growth or viability | MTS | 72 h |  | 0.00542 µM
CN1CCC(N[C@@H]2CCc3[nH]c4c(C(N)=O)ccc(-c5ccccc5Cl)c4c3C2)CC1 | cell growth or viability |  |  |  | 0.00852 µM
CCCN1C(=O)CS/C1=N\N=C\c1cccc2cc3ccccc3nc12 | cell growth or viability | MTT | 48 h |  | > 50 µM
COc1ccnc(-c2cc(OC)ccn2)c1.[Co+2].[O-]c1c(I)cc(I)c2cccnc12.[O-]c1c(I)cc(I)c2cccnc12 | cell growth or viability | MTT | 48 h |  | 33.7 µM
O=C1CS/C(=N\N=C2/C(=O)N(CCn3ncc4c(=O)[nH]cnc43)c3ccc(Cl)cc32)N1 | cell growth or viability | SRB | 72 h |  | 2.43 µg/mL
CCOC(=O)/C=C1\S/C(=N\N=C\c2cccc3cc4ccccc4nc23)N(c2ccccc2)C1=O | cell growth or viability | MTT | 48 h |  | > 50 µM
Cc1ccc2c(Cl)cc(Cl)c([O-])c2n1.Cc1ccc2c(Cl)cc(Cl)c([O-])c2n1.[Co+2].c1ccc(-c2ccnc3c2ccc2c(-c4ccccc4)ccnc23)cc1 | cell growth or viability | MTT | 48 h |  | 6.21 µM
COc1cccc(N2C(=O)CS/C2=N\N=C\c2cccc3cc4ccccc4nc23)c1 | cell growth or viability | MTT | 48 h |  | 43.4 µM

Structure (SMILES) | observed | technique | time | setting | IC50
Clc1ccnc2c1ccc1c(Cl)ccnc12.[Co+2].[O-]c1c(Br)cc(Br)c2cccnc12.[O-]c1c(Br)cc(Br)c2cccnc12 | cell growth or viability | MTT | 48 h |  | 30.5 µM
COc1ccc2c(c1)/C(=N/NC(N)=S)C(=O)N2CCn1cnc2c(N)ncnc21 | cell growth or viability | SRB | 72 h |  | 12.2 µg/mL
O=C1C(Br)=C(Br)C(=O)c2ccccc21 | cell growth or viability | MTT |  |  | 18.4 µM
O=c1[nH]c(=O)n([C@H]2C[C@H](O)[C@@H](CO)O2)cc1F | cell growth or viability |  |  |  | > 10 µM
CC(C)CN1C(=O)CS/C1=N\N=C\c1cccc2cc3ccccc3nc12 | cell growth or viability | MTT | 48 h |  | > 50 µM
CC(C)c1ccc(N(C)c2ccc3c(c2)OCC[C@H]3CNc2cnccc2C(=O)O)cc1 | cell growth or viability | ATP luminescence | 7 days |  | 0.0521 µM
COCCN(C)CC(=O)NC(Cc1ccc(-c2ccccc2)cc1)B(O)O (centres unmarked) | cell growth |  | 72 h |  | 1.35 µM
Nc1ncn([C@@H]2O[C@H](CO)[C@@H](O)[C@H]2O)c(=O)n1 | cell growth or viability |  |  |  | > 10 µM
Cc1ccc(C(C)C)cc1.Cc1ccc(C(C)C)cc1.Cc1ccc(C(C)C)cc1.Cc1ccc(C(C)C)cc1.O=S(=O)(O)C(F)(F)F.O=S(=O)(O)C(F)(F)F.O=S(=O)(O)C(F)(F)F.O=S(=O)(O)C(F)(F)F.c1ccc2c3c4ccccc4c(c2c1)-c1cn(nn1)-c1cc[n+](cc1)[Ru-]1[O]c2c4ccccc4c4c5c(c6ccccc6c(c25)=[O+]1)=[O+][Ru-]([O]4)[n+]1ccc(cc1)-n1cc(nn1)-c1c2ccccc2c(c2ccccc12)-c1cn(nn1)-c1cc[n+](cc1)[Ru-]1[O]c2c4ccccc4c4c5c(c6ccccc6c(c25)=[O+]1)=[O+][Ru-]([O]4)[n+]1ccc(cc1)-n1cc-3nn1 | cell growth | MTT | 24 h | 20 µM preincubated in medium 48 h at 37 °C | 13.4 ± 2.18 µM
Cc1ccc(-c2ccc(C)cn2)nc1 | cell growth or viability | MTT | 48 h |  | > 50 µM
C[C@H]1c2cccc(O)c2C(O)=C2C(=O)[C@]3(O)C(O)=C(C(N)=O)C(=O)[C@@H](N(C)C)[C@@H]3[C@@H](O)[C@@H]21 | cell growth or viability |  |  |  | > 10 µM
c1ccc2nc3c4cccnc4c4ncccc4c3nc2c1 | cell growth or viability | MTT | 48 h |  | > 50 µM
CN1C(=O)CS/C1=N\N=C\c1cccc2cc3ccccc3nc12 | cell growth or viability | MTT | 48 h |  | > 50 µM
Cc1ccc2c(c1C#Cc1ccc(O)cc1)C(c1ccc(O)cc1)(c1ccc(O)cc1)c1cc(O)ccc1-2 | cell growth or viability | MTT | 48 h |  | 12.2 µM
c1ccc2c(-c3cn(-c4ccncc4)nn3)c3ccccc3c(-c3cn(-c4ccncc4)nn3)c2c1 | cell growth or viability | MTT | 24 h |  | > 20 µM
Cc1ccc2c(Br)cc(Br)c([O-])c2n1.Cc1ccc2c(Br)cc(Br)c([O-])c2n1.[Co+2].c1ccc(-c2ccccn2)nc1 | cell growth or viability | MTT | 48 h |  | 16 µM
O=C1CS/C(=N\N=C\c2cccc3cc4ccccc4nc23)N1c1ccccc1 | cell growth or viability | MTT | 48 h |  | > 50 µM
Cc1ccc(C(C)C)cc1.Cc1ccc(C(C)C)cc1.Cc1ccc(C(C)C)cc1.Cc1ccc(C(C)C)cc1.O=S(=O)(O)C(F)(F)F.O=S(=O)(O)C(F)(F)F.O=S(=O)(O)C(F)(F)F.O=S(=O)(O)C(F)(F)F.c1ccc2c3c4ccccc4c(c2c1)-c1cn(nn1)-c1cc[n+](cc1)[Ru-]1[O]C2=[O+][Ru-]([O]C2=[O+]1)[n+]1ccc(cc1)-n1cc(nn1)-c1c2ccccc2c(c2ccccc12)-c1cn(nn1)-c1cc[n+](cc1)[Ru-]1[O]C2=[O+][Ru-]([O]C2=[O+]1)[n+]1ccc(cc1)-n1cc-3nn1 | cell growth or viability | MTT | 24 h |  | 14.3 µM
Cc1ccc2c(Cl)cc(Cl)c([O-])c2n1.Cc1ccc2c(Cl)cc(Cl)c([O-])c2n1.Clc1ccnc2c1ccc1c(Cl)ccnc12.[Co+2] | cell growth or viability | MTT | 48 h |  | 5.41 µM
O=C(O)c1ccc(-c2ccc(O)cc2)c2c1C=C(c1ccc(O)cc1)OC2(c1ccc(O)cc1)c1ccc(O)cc1 | cell growth or viability | MTT | 48 h |  | 10.3 µM
